Assay results gathered from unrelated publications.
Every numbered part comes from another study and shows a few of its results, in no order.
Chain of UniProt Q96BR1 (whole entry, looked up): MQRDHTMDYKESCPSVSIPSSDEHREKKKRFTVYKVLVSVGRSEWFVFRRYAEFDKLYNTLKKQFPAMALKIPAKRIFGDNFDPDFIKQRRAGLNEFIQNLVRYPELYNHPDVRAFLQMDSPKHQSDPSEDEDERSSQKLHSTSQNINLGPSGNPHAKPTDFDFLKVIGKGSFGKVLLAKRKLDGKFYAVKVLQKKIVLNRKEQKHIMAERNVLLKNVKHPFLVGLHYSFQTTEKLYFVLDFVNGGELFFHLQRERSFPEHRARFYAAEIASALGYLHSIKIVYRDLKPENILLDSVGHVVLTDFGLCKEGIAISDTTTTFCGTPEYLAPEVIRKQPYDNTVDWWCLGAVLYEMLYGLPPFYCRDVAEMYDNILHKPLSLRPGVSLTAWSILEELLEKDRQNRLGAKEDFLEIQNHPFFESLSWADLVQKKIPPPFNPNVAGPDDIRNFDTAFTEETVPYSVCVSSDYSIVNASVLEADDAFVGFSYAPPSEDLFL

Study 1
Target: Eukaryotic initiation factor 4A-I (EIF4A1, Homo sapiens, UniProt P60842, residues 1-406, full length assumed)
Chain of UniProt P60842 (whole entry, looked up): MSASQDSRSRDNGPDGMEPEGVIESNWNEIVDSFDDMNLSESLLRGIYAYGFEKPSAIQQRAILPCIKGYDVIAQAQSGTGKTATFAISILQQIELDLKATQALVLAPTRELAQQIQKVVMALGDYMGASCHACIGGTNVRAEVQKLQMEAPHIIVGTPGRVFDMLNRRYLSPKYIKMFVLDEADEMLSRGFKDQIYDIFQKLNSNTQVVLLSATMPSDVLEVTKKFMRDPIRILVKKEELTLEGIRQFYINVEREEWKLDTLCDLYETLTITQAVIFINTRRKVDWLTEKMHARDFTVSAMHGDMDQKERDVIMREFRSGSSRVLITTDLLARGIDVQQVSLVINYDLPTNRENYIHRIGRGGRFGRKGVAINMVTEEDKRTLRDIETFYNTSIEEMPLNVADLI
Technique: RNA Bind-n-Seq
Form: RNA
Matrix: in vitro
Tested at: 90 pmol
Setting: 4-mer, random 30-nt RNA, single round
Added: 3 µM DMDA-PatA, 2 mM ADP, 2 mM phosphate
Relative to: input library
Reading: higher = stronger binding
Strand	4-mer enrichment
AACU	0.657 fold
UUAA	1.07 fold
UGUU	1.25 fold
UAAG	1.17 fold
AGUG	1.89 fold
UACG	0.689 fold
GCUG	0.681 fold
AGAA	1.16 fold

Study 2
Target: UBE2R2 UBC core domain (UniProt Q712K3)
Technique: yeast two-hybrid
Matrix: yeast
Setting: mostly zero background
Relative to: not given
Reading: higher = stronger interaction
B1: IRF2BPL RING domain (UniProt Q9H1B7); chain SPMANSGPLCCTICHERLEDTHFVQCPSVPSHKFCFPCSRESIKAQGATGEVYCPSGEKCPLVGSNVP
B2: CUL9 RING domain (UniProt Q8IWT3); chain AQAVPVRPDHCPVCVSPLGCDDDLPSLCCMHYCCKSCWNEYLTTRIEQNLVLNCTCPIADCPAQPTGAFIR
B3: TRIM8 RING domain (UniProt Q9BZR9); chain WKNCFEEELICPICLHVFVEPVQLPCKHNFCRGCIGEAWAKDSGLVRCPECNQAYNQKPGLE
B4: PHF21A RING domain (UniProt Q96BD5); chain SPTSTDGDIHEDFCSVCRKSGQLLMCDTCSRVYHLDCLDPPLKTIPKGMWICPRCQDQMLKKEEAIPW
B5: TRIM72 RING domain (UniProt Q6ZMU5); chain APGLLHQELSCPLCLQLFDAPVTAECGHSFCRACLGRVAGEPAADGTVLCPCCQAPTRPQALST
Target sequence (chain): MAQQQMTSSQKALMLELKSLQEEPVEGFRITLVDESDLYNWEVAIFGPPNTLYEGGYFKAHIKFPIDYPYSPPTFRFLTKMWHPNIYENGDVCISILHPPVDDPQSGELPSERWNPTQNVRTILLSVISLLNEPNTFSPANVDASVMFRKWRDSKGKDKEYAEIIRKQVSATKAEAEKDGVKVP
Sequence	lacZ reporter activity
B1 (IRF2BPL RING domain)	0
B2 (CUL9 RING domain)	0
YWAMDSTFELCKICAESNKDVKIEPCGHLLCSCCLAAWQHSDSQTCPFCRCEIKGWEAVS (CBLC RING domain (UniProt Q9ULV8))	0
B3 (TRIM8 RING domain)	0
VTLSLTLPITCHICLGKVRQPVICINNHVFCSICIDLWLKNNSQCPACRVPITPENPCK (OBI1 RING domain (UniProt Q5W0B1))	0
B4 (PHF21A RING domain)	0
B5 (TRIM72 RING domain)	0
PEELQAMDNVCIICREEMVTGAKRLPCNHIFHTSCLRSWFQRQQTCPTCRMDVLRASLPA (SYVN1 RING domain (UniProt Q86TM6))	0

Study 3
Target: Hepatocyte nuclear factor 3-alpha (Foxa1, Mus musculus, UniProt P35582, residues 1-468, full length assumed)
Technique: EMSA with sequencing
Form: double-stranded DNA, one strand shown
Matrix: in vitro
Tested at: 10 and 20 nM
Setting: whole designed probe, mean of two concentrations, ends assumed
Relative to: negative control set to 0
Reading: higher = stronger binding
Residues (chain): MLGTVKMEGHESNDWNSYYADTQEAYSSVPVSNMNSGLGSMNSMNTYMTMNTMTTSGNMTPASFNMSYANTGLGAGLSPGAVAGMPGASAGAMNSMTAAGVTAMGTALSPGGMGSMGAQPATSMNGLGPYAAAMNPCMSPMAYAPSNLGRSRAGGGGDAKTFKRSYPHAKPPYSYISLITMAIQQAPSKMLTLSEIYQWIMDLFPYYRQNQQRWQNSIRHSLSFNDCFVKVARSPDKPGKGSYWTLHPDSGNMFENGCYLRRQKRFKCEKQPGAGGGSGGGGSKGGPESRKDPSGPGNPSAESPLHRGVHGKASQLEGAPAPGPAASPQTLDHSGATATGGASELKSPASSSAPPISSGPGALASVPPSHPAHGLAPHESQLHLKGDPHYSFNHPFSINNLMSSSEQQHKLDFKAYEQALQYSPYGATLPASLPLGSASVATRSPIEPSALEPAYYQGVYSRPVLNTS
Strand	normalised bound fraction
GTGAGCGGTGCCCATTGATGGGGAACATCTTCCCCCTCTTCCTTGCCCCACCAGCTCACCTTCCCGGGTTATTTGCAGATAGGAAAATAAATAAAGCCGGCATTTGCACTCCATCTTCTGGCGCAAACTGCTGTTTGCTCTGGATGAATCATGGTCCTTTGGCGACGCCAGGCTCCGGGAGAGCAAAGCACCGTGTCAGGGCCATGATCCGGGGTGGCCTTTCACTGGGATCGTGGGGAC	0.324 ratio
GTGAGCGGTGCCCATTGATGGGGAACATCTTCCCCCTCTTCCTTGCCCCACCAGCTCACCTTCCCGGGTTATTTGCAAAGTAGAAGATAAATAAAGCCGGCATTCGTTAACCCTCTTCTGGCGCAAACTGCTGTTTGCTCTGGATGAATCATGGTCCTTTGGCGACGCCAGGCTCCGGGAGAGCAAAGCACCGTGTCAGGGCCATGATCCGGGGTGGCCTTTCACTGGGATCGTGGGGAC	0.304 ratio
GTGAGCGGTGCCCATTGATGGGGAACATTAGGCAGATACAGGGACCTGAGACTTAGGTGGTTATTTTCTTCATCTCATCAGTGGGGACCTGGCTTCTTTGACTGCACCTTGATGTGCTTGTTTACACTGTTAGTATTTCCCCTTGTGGATACTGTAGGCTTATTTTATAGCCAGAGTGAGTAGGGGCAGGCTATCTGGCCAGTCGCCACCTCAGATTATTTTCACTGGGATCGTGGGGAC	0.324 ratio

Mixed results
SMILES	target	assay	conditions	quantity	value
CCC(=O)N[C@H]1CC[C@@H](C(=O)N(C)c2ccc(-c3nc4ccccc4o3)cc2)C1	Serine/threonine-protein kinase Sgk3 (SGK3, Homo sapiens, UniProt Q96BR1)	cell-free assay, competition with immobilised ligand	1 µM	remaining binding	66%

Excerpt of the above (study 3):
Strand	normalised bound fraction
GTGAGCGGTGCCCATTGATGGGGAACATCTTCCCCCTCTTCCTTGCCCCACCAGCTCACCTTCCCGGGTTATTTGCAAAGTAGAAGATAAATAAAGCCGGCATTCGTTAACCCTCTTCTGGCGCAAACTGCTGTTTGCTCTGGATGAATCATGGTCCTTTGGCGACGCCAGGCTCCGGGAGAGCAAAGCACCGTGTCAGGGCCATGATCCGGGGTGGCCTTTCACTGGGATCGTGGGGAC	0.304 ratio
GTGAGCGGTGCCCATTGATGGGGAACATTAGGCAGATACAGGGACCTGAGACTTAGGTGGTTATTTTCTTCATCTCATCAGTGGGGACCTGGCTTCTTTGACTGCACCTTGATGTGCTTGTTTACACTGTTAGTATTTCCCCTTGTGGATACTGTAGGCTTATTTTATAGCCAGAGTGAGTAGGGGCAGGCTATCTGGCCAGTCGCCACCTCAGATTATTTTCACTGGGATCGTGGGGAC	0.324 ratio
